Experimental data of several laboratories.
A part holds a random share of what one study measured.
Sequence of UniProt P24723 (whole entry, looked up): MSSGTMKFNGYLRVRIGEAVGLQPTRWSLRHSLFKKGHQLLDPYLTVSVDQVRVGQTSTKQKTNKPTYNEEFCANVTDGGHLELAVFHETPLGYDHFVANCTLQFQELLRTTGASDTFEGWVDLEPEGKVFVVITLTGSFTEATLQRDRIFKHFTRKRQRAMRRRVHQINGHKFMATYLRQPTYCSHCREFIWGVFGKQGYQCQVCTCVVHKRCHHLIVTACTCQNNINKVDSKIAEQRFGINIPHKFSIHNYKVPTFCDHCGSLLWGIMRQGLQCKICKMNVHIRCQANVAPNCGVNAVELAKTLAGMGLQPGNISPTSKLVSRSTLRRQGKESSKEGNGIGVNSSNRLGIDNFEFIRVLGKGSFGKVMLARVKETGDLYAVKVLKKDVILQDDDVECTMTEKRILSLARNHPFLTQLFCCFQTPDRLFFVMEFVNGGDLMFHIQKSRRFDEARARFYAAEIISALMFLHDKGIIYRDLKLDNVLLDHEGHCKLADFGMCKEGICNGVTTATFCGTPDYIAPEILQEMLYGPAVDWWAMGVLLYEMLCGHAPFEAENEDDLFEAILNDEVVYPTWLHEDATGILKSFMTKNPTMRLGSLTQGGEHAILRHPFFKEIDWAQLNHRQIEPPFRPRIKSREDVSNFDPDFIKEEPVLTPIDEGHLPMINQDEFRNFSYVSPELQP
Sequence of UniProt O75676 (whole entry, looked up): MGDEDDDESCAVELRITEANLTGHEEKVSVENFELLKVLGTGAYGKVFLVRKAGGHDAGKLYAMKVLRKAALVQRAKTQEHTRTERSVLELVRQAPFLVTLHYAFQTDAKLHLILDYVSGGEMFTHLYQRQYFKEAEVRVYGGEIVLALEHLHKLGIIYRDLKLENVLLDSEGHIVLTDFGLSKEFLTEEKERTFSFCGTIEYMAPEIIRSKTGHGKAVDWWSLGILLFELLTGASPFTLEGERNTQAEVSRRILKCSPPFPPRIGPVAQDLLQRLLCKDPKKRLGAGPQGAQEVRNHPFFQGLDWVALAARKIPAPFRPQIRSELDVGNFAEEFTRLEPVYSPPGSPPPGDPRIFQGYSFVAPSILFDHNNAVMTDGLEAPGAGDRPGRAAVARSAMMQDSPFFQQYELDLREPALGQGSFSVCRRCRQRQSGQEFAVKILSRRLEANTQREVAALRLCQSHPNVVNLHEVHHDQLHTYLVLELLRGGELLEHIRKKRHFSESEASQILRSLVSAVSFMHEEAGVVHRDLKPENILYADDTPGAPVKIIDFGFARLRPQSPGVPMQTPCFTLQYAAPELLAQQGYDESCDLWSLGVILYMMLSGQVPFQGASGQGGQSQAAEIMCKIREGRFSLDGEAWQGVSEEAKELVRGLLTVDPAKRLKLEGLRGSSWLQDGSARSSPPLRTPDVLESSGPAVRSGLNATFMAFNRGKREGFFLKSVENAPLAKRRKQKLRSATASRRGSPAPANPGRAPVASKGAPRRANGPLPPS
Sequence of UniProt P31749 (whole entry, looked up): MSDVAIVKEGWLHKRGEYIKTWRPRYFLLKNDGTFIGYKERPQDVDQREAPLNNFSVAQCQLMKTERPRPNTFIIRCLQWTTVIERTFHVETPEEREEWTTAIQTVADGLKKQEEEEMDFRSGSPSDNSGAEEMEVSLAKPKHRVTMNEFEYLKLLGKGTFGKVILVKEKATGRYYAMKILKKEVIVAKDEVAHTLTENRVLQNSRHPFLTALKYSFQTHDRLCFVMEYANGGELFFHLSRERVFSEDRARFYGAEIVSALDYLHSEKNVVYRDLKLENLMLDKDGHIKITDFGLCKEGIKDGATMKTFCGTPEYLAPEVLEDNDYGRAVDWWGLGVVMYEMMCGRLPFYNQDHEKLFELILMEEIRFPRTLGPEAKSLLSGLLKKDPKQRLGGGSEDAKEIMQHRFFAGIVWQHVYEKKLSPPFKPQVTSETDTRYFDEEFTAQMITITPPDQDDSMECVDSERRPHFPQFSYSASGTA
Sequence of UniProt Q05655 (whole entry, looked up): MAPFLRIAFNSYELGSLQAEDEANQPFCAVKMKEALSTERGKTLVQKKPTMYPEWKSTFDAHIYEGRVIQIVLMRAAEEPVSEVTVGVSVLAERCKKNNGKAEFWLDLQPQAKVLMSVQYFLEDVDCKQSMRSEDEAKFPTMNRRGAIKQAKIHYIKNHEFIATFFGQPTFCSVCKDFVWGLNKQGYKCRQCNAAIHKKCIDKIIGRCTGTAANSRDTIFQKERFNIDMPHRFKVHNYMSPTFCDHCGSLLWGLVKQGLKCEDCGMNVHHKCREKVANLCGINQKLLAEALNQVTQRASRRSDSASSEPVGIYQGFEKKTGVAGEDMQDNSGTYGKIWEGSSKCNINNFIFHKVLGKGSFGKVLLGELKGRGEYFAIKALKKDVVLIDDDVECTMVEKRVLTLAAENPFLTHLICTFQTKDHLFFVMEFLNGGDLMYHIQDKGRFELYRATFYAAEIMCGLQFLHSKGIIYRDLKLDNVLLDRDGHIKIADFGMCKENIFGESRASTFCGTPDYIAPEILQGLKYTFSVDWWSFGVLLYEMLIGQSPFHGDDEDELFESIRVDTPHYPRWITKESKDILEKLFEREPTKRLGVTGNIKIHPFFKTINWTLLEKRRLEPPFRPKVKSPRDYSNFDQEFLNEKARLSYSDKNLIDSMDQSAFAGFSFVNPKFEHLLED
Sequence of UniProt P37023 (whole entry, looked up): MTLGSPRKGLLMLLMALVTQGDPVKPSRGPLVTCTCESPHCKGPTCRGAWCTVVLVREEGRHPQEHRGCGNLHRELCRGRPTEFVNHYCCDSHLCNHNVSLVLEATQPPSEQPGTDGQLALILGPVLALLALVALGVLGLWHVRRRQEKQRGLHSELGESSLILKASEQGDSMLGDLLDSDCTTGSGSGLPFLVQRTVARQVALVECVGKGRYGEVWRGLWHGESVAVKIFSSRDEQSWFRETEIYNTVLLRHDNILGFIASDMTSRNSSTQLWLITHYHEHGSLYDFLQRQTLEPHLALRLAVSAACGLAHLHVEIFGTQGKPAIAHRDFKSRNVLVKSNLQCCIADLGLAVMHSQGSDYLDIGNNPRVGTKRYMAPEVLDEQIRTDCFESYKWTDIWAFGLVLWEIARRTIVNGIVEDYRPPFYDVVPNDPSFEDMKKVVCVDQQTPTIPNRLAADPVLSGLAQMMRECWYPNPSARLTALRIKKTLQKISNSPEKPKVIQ
Sequence of UniProt O43318 (whole entry, looked up): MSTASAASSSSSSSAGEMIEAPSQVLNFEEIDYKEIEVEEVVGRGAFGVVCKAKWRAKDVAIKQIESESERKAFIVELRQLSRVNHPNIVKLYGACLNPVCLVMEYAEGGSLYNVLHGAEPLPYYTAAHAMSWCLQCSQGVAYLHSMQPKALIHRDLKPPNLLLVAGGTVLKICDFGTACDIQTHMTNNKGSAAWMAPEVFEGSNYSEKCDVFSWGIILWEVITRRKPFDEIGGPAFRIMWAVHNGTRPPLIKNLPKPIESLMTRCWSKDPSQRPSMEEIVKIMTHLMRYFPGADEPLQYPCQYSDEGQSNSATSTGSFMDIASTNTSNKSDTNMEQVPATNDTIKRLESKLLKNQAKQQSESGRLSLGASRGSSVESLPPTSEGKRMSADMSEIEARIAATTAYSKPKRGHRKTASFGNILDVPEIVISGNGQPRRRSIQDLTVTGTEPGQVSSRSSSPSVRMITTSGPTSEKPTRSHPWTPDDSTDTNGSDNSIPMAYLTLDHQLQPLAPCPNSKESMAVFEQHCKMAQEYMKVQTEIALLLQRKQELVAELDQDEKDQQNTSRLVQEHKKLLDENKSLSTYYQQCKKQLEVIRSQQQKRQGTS

Sample 1 — action: antagonist
Target: Beta-1 adrenergic receptor (ADRB1, Homo sapiens, UniProt P08588)
Sequence of UniProt P08588 (whole entry, looked up): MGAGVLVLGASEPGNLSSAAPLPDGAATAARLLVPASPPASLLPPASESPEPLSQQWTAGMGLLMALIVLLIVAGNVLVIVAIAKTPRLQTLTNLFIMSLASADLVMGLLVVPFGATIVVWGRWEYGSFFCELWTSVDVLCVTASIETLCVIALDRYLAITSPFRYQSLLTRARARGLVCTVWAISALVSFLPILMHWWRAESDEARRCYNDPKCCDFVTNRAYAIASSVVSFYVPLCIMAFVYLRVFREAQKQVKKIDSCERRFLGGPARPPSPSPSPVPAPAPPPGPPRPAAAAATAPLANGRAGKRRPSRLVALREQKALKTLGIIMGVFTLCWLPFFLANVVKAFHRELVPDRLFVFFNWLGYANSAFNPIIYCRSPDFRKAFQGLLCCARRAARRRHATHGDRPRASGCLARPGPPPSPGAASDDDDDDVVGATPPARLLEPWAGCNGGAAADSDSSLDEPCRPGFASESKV
| Structure (SMILES) | IC50 [µM] |
| --- | --- |
| Cc1noc2c(-c3cccnc3NCCCn3ccnc3)cc(-c3ccccc3)nc12 | ≥ 100 |
| Cc1cc2nc3ccc(N(C)C)cc3[s+]c2cc1N | 35.5 |
| Cc1nn(Cc2ccc(F)cc2)c2sc(C(=O)N(C)Cc3cnn(C)c3)cc12 | ≥ 100 |
| Cc1cc(=O)oc2c(O)c(O)ccc12 | ≥ 100 |
| CC(C)N1CCN(c2cc(-c3ccccc3)c3ccccc3n2)CC1 | ≥ 100 |
| CCCCNCc1ccc(OCC(O)CN2CCSCC2)c(OC)c1 (centres unmarked) | ≥ 100 |
| COc1ccc(CC(C)(C)NC[C@H](O)c2cc(O)cc3c2OCC(=O)N3)cc1 | ≥ 100 |

Sample 2
Compound: COc1cc(C(=O)N2CCC(N3CCN(C)CC3)CC2)ccc1Nc1ncc2c(n1)N(C)c1ccccc1C(=O)N2C
| tested on | test | test system | setting | inhibition |
| --- | --- | --- | --- | --- |
| – | inhibitor, KiNativ profiling, item: peptide TSTQEYAAkIINTK | human PBMC lysate | concentration not given, Lys1 site, together with: ADP acyl-phosphate probe | -1.5% |
| mouse FER | probe labelling, KiNativ ATP probe | mouse brain lysate | 1 µM, activation loop site | -20.4% |
| MAP3K3 (human) | probe labelling, KiNativ ADP probe | human PBMC lysate | concentration not given, LYS1 labelled site | -5.3% |
| PKCa (mouse) | probe labelling, KiNativ, item: LYS1 site peptide | brain tissue lysate (mouse) | 1 µM, together with: ATP acyl-phosphate probe | 4.8% |
| MAP2K6 (human) | probe labelling, KiNativ ADP probe | human PBMC lysate | concentration not given, LYS2 labelled site | -14.5% |
| mouse PCTAIRE2 and PCTAIRE3 | probe labelling, KiNativ ATP probe | mouse brain lysate | 1 µM, LYS1 site | 0.5% |

Sample 3 — read-out: cell-free assay; method: competition with immobilised ligand; tested at: 1 µM
Compound: COc1ccc2c(c1)O[C@H](c1ccc(OC)c(OC)c1)C[C@@H]2NC(=O)C1(c2ccc3c(c2)OC(F)(F)O3)CC1
| target | remaining binding |
| --- | --- |
| IGF1R (Homo sapiens, UniProt P08069) | 98% |
| PRKCD (Homo sapiens, UniProt Q05655) | 100% |
| AKT1 (Homo sapiens, UniProt P31749) | 63% |
| TEK (Homo sapiens, UniProt Q02763) | 70% |
| Ribosomal protein S6 kinase alpha-4, C-terminal kinase domain (RPS6KA4, Homo sapiens, UniProt O75676) | 100% |
| PRKCH (Homo sapiens, UniProt P24723) | 100% |
| ACVRL1 (Homo sapiens, UniProt P37023) | 90% |
| MAP3K7 (Homo sapiens, UniProt O43318) | 100% |

Sample 4 — read-out: enzyme activity; action: inhibitor; tested at: 0.5 µM; relative to: control
Target: Dual specificity protein kinase CLK2 (CLK2, Homo sapiens, UniProt P49760)
Sequence of UniProt P49760 (whole entry, looked up): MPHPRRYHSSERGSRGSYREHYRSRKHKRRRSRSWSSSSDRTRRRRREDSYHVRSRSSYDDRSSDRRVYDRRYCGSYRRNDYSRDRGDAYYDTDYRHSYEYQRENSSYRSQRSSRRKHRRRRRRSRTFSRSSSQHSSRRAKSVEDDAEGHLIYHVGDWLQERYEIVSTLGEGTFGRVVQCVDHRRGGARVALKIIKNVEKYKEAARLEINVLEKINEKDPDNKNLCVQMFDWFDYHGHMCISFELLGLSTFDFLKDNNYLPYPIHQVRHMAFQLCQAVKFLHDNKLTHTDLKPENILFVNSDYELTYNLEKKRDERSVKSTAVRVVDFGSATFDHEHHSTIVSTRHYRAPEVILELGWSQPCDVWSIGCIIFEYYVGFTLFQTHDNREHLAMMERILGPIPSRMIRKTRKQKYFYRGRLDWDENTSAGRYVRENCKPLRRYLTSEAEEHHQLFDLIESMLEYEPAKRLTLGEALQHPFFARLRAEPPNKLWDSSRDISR
| Compound | remaining activity |
| --- | --- |
| O=c1c2ccccc2[nH]c(=S)n1CCN1CCC(=C(c2ccc(F)cc2)c2ccc(F)cc2)CC1 | 87.8% |
| O=S(=O)(c1cccc2cnccc12)N1CCCNCC1 | 95.1% |
| COc1ccc(CNC(=O)Nc2ncc([N+](=O)[O-])s2)cc1 | 97.4% |
| Cn1sc(=O)n(Cc2ccccc2)c1=O | 98.5% |
| COc1ccc(C(=O)Nc2sc3c(c2C(N)=O)CCCC3)cc1OC | 86.5% |
| CC(C)[C@H](CO)Nc1nc(Nc2cc(N)cc(Cl)c2)c2ncn(C(C)C)c2n1 | 17.7% |
| COc1cc2nccc(Oc3ccc(NC(=S)NC(=O)c4ccccc4C)cc3)c2cc1OC | 107% |
| OCC(O)CCON=C1C(c2c(O)[nH]c3ccccc23)=Nc2ccccc21 (centres unmarked) | 92% |
| Oc1ccc(-c2nc(-c3ccncc3)c(-c3ccc(F)cc3)[nH]2)cc1 | 105% |
| O=C(O)c1ccc2c3c1cccc3c(=O)n1c3ccccc3nc21 | 91% |
| CO[C@H]1C[C@@H]2CC[C@@H](C)[C@@](O)(O2)C(=O)C(=O)N2CCCC[C@H]2C(=O)O[C@H]([C@H](C)C[C@@H]2CC[C@@H](O)[C@H](OC)C2)CC(=O)[C@H](C)/C=C(\C)[C@@H](O)[C@@H](OC)C(=O)[C@H](C)C[C@H](C)/C=C/C=C/C=C/1C | 102% |
| NCCNc1ncc(C(N)=O)c(Nc2cccc(C(F)(F)F)c2)n1 | 94.4% |
| CNC(=O)c1cc(Oc2ccc(NC(=O)Nc3ccc(Cl)c(C(F)(F)F)c3)cc2)ccn1 | 92.8% |
| O=C1NC(=O)C(c2cn(CCCO)c3ncccc23)=C1c1cnccn1 | 98.9% |

A few entries again (sample 2):
| tested on | test | test system | setting | inhibition |
| --- | --- | --- | --- | --- |
| mouse FER | probe labelling, KiNativ ATP probe | mouse brain lysate | 1 µM, activation loop site | -20.4% |
| MAP3K3 (human) | probe labelling, KiNativ ADP probe | human PBMC lysate | concentration not given, LYS1 labelled site | -5.3% |
| PKCa (mouse) | probe labelling, KiNativ, item: LYS1 site peptide | brain tissue lysate (mouse) | 1 µM, together with: ATP acyl-phosphate probe | 4.8% |
| MAP2K6 (human) | probe labelling, KiNativ ADP probe | human PBMC lysate | concentration not given, LYS2 labelled site | -14.5% |
| mouse PCTAIRE2 and PCTAIRE3 | probe labelling, KiNativ ATP probe | mouse brain lysate | 1 µM, LYS1 site | 0.5% |
